Experimental data collected from several papers.
Each line is one published result; not all experiments were run side by side.
B1: MDM4 23-111, p53-binding domain (Homo sapiens, UniProt O15151); chain GPLGSQINQVRPKLPLLKILHAAGAQGEMFTVKEVMHYLGQYIMVKQLYDQQEQHMVYCGGDLLGELLGRQSFSVKDPSPLYDMLRKNLVTLAT
B2: SEH1 (Saccharomyces cerevisiae, UniProt P53011); sequence looked up; chain MQPFDSGHDDLVHDVVYDFYGRHVATCSSDQHIKVFKLDKDTSNWELSDSWRAHDSSIVAIDWASPEYGRIIASASYDKTVKLWEEDPDQEECSGRRWNKLCTLNDSKGSLYSVKFAPAHLGLKLACLGNDGILRLYDALEPSDLRSWTLTSEMKVLSIPPANHLQSDFCLSWCPSRFSPEKLAVSALEQAIIYQRGKDGKLHVAAKLPGHKSLIRSISWAPSIGRWYQLIATGCKDGRIRIFKITEKLSPLASEESLTNSNMFDNSADVDMDAQGRSDSNTEEKAELQSNLQVELLSEHDDHNGEVWSVSWNLTGTILSSAGDDGKVRLWKATYSNEFKCMSVITAQQ
B3: Arc (Rattus norvegicus, UniProt Q63053); sequence looked up; chain MELDHMTTGGLHAYPAPRGGPAAKPNVILQIGKCRAEMLEHVRRTHRHLLTEVSKQVERELKGLHRSVGKLENNLDGYVPTGDSQRWKKSIKACLCRCQETIANLERWVKREMHVWREVFYRLERWADRLESMGGKYPVGSEPARHTVSVGVGGPEPYCQEADGYDYTVSPYAITPPPAAGELPEQESVGAQQYQSWVPGEDGQPSPGVDTQIFEDPREFLSHLEEYLRQVGGSEEYWLSQIQNHMNGPAKKWWEFKQGSVKNWVEFKKEFLQYSEGTLSREAIQRELDLPQKQGEPLDQFLWRKRDLYQTLYVDAEEEEIIQYVVGTLQPKFKRFLRHPLPKTLEQLIQRGMEVQDGLEQAAEPSVTPLPTEDETEALTPALTSESVASDRTQPE
B4: nlpI (Escherichia coli, UniProt P0AFB1); sequence looked up; chain CSNTSWRKSEVLAVPLQPTLQQEVILARMEQILASRALTDDERAQLLYERGVLYDSLGLRALARNDFSQALAIRPDMPEVFNYLGIYLTQAGNFDAAYEAFDSVLELDPTYNYAHLNRGIALYYGGRDKLAQDDLLAFYQDDPNDPFRSLWLYLAEQKLDEKQAKEVLKQHFEKSDKEQWGWNIVEFYLGNISEQTLMERLKADATDNTSLAEHLSETNFYLGKYYLSLGDLDSATALFKLAVANNVHNFVEHRYALLELSLLGQDQDDLAESDQQ
B5: ranibizumab Fab; V domains shown; VH EVQLVESGGGLVQPGGSLRLSCAASGYDFTHYGMNWVRQAPGKGLEWVGWINTYTGEPTYAADFKRRFTFSLDTSKSTAYLQMNSLRAEDTAVYYCAKYPYYYGTSHWYFDVWGQGTLVTVSS; VL DIQLTQSPSSLSASVGDRVTITCSASQDISNYLNWYQQKPGKAPKVLIYFTSSLHSGVPSRFSGSGSGTDFTLTISSLQPEDFATYYCQQYSTVPWTFGQGTKVEIK
B6: MLLT3 (Homo sapiens, UniProt P42568); chain MASSCAVQVKLELGHRAQVRKKPTVEGFTHDWMVFVRGPEHSNIQHFVEKVVFHLHESFPRPKRVCKDPPYKVEESGYAGFILPIEVYFKNKEEPRKVRFDYDLFLHLEGHPPVNHLRCEKLTFNNPTEDFRRKLLKAGGDPNRSIHTSSSSSSSSSSSSSSSSSSSSSSSSSSSSSSSSSSSSSSSSSSTSFSKPHKLMKEHKEKPSKDSREHKSAFKEPSRDHNKSSKESSKKPKENKPLKEEKIVPKMAFKEPKPMSKEPKPDSNLLTITSGQDKKAPSKRPPISDSEELSAKKRKKSSSEALFKSFSSAPPLILTCSADKKQIKDKSHVKMGKVKIESETSEKKKSTLPPFDDIVDPNDSDVEENISSKSDSEQPSPASSSSSSSSSFTPSQTRQQGPLRSIMKDLHSDDNEEESDEVEDNDNDSEMERPVNRGGSRSRRVSLSDGSDSESSSASSPLHHEPPPPLLKTNNNQILEVKSPIKQSKSDKQIKNGECDKAYLDELVELHRRLMTLRERHILQQIVNLIEETGHFHITNTTFDFDLCSLDKTTVRKLQSYLETSGTS
B7: KAT7 364-473 (Homo sapiens, UniProt O95251); sequence looked up; chain RLYMCEFCLKYMKSQTILRRHMAKCVWKHPPGDEIYRKGSISVFEVDGKKNKIYCQNLCLLAKLFLDHKTLYYDVEPFLFYVMTEADNTGCHLIGYFSKEKNSFLNYNVS
B8: SNAPC3 (Homo sapiens, UniProt Q92966); chain MAEGSRGGPTCSGVGGRQDPVSGSGGCNFPEYELPELNTRAFHVGAFGELWRGRLRGAGDLSLREPPASALPGSQAADSDREDAAVARDLDCSLEAAAELRAVCGLDKLKCLEDGEDPEVIPENTDLVTLGVRKRFLEHREETITIDRACRQETFVYEMESHAIGKKPENSADMIEEGELILSVNILYPVIFHKHKEHKPYQTMLVLGSQKLTQLRDSIRCVSDLQIGGEFSNTPDQAPEHISKDLYKSAFFYFEGTFYNDKRYPECRDLSRTIIEWSESHDRGYGKFQTARMEDFTFNDLCIKLGFPYLYCHQGDCEHVIVITDIRLVHHDDCLDRTLYPLLIKKHWLWTRKCFVCKMYTARWVTNNDSFAPEDPCFFCDVCFRMLHYDSEGNKLGEFLAYPYVDPGTFN
B9: gld-3 860-949 (Caenorhabditis elegans, UniProt Q95ZK7); sequence looked up; chain NGVTKTILEPRARVEKDYGKISLEHKTKYSNEYGDEEKSAENDTSSLGSRQYRIDPMKLIASVRESSEQLPRIHERQFSDVLNEKEKEIA
B10: CCDC32 66-130 (Mus musculus, UniProt Q8BS39); chain KPWAPLHDSEVYLASLEKKLRRIKGLNEEVTSKDMLRTLAQAKKECWDRFLQEKLASEFFVDGLD
B11: lpxC 1-305 (Escherichia coli, UniProt P0A725); chain MIKQRTLKRIVQATGVGLHTGKKVTLTLRPAPANTGVIYRRTDLNPPVDFPADAKSVRDTMLCTCLVNEHDVRISTVEHLNAALAGLGIDNIVIEVNAPEIPIMDGSAAPFVYLLLDAGIDELNCAKKFVRIKETVRVEDGDKWAEFKPYNGFSLDFTIDFNHPAIDSSNQRYAMNFSADAFMRQISRARTFGFMRDIEYLQSRGLCLGGSFDCAIVVDDYRVLNEDGLRFEDEFVRHKMLDAIGDLFMCGHNIIGAFTAYKSGHALNNKLLQAVLAKQEAWEYVTFQDDAELPLAFKAPSAVLA
B12: SNU71 382-537 (Saccharomyces cerevisiae, UniProt P53207); chain SNTEPKIKSIRADIMSAENYEEHLEKNRSLYLKELLHLANDVHYDHHRSFKEQEERRDEEDRAKNGNAKELAPIQLSDGKAISAGKAAAITLPEGTVKSENYNADKNVSESSEHVKIKFDFKKAIDHSVESSSEDEGYRESELPPTKPSERSAAED
B13: CNNM4 352-511 (Homo sapiens, UniProt Q6P4Q7); sequence looked up; chain NDLVKEELNMIQGALELRTKTVEDIMTQLQDCFMIRSDAILDFNTMSEIMESGYTRIPVFEDEQSNIVDILYVKDLAFVDPDDCTPLKTITRFYNHPVHFVFHDTKLDAMLEEFKKGKSHLAIVQKVNNEGEGDPFYEVLGLVTLEDVIEEIIKSEILDE
B14: PSMG4 1-123 (Homo sapiens, UniProt Q5JS54); chain MEGLVVAAGGDVSLHNFSARLWEQLVHFHVMRLTDSLFLWVGATPHLRNLAVAMCSRYDSIPVSTSLLGDTSDTTSTGLAQRLARKTNKQVFVSYNLQNTDSNFALLVENRIKEEMEAFPEKF
Sequence of UniProt P49687 (whole entry, looked up): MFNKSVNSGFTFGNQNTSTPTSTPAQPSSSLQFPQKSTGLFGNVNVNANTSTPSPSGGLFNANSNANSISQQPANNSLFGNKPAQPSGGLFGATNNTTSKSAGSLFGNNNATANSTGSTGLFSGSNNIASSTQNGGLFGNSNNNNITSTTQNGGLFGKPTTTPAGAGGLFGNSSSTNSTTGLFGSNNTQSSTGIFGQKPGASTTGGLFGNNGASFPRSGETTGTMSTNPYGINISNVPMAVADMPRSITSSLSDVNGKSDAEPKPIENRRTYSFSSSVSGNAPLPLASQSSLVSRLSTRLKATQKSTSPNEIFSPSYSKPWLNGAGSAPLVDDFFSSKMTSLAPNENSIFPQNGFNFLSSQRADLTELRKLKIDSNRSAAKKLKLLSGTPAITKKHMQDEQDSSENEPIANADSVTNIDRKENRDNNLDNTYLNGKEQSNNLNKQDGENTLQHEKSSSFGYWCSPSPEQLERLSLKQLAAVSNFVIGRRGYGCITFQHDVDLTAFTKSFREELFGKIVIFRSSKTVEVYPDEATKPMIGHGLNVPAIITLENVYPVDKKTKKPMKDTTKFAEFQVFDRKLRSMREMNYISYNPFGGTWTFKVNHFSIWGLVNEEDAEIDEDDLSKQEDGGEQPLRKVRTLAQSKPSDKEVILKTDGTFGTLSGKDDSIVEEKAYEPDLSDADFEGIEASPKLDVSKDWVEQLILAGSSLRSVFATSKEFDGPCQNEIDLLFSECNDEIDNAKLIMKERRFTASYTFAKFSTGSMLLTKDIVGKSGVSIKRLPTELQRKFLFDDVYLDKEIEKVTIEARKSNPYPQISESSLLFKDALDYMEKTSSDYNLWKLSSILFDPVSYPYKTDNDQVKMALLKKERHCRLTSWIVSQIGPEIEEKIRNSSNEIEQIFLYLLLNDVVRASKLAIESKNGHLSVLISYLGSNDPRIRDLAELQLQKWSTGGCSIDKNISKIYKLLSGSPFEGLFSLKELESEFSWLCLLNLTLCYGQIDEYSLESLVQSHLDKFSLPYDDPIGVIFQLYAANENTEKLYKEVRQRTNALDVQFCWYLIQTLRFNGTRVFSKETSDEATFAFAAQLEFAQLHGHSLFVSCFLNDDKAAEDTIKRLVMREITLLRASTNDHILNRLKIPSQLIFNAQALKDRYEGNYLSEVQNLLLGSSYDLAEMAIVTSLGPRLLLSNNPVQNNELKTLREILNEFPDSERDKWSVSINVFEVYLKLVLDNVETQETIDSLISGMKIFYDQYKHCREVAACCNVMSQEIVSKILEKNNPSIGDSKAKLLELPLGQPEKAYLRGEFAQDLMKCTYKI
Sequence of UniProt Q9NVU0 (whole entry, looked up): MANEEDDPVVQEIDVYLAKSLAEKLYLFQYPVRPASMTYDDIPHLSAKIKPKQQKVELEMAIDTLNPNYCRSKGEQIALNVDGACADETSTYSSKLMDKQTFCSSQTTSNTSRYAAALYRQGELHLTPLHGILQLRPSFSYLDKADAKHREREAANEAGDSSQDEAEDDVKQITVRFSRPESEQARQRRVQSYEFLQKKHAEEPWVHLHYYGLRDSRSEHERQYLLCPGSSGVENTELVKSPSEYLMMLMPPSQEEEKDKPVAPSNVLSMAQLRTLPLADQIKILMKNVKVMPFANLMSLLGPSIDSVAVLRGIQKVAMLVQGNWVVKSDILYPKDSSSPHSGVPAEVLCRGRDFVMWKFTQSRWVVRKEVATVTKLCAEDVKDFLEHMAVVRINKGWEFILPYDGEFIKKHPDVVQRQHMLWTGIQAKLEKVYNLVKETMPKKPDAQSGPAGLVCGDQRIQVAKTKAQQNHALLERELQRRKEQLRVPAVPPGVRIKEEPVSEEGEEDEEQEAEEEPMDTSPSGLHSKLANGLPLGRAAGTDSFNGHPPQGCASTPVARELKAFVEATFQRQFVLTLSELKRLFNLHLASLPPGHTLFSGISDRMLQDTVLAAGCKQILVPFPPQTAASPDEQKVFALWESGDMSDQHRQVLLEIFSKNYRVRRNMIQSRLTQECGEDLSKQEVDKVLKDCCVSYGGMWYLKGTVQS
Sequence of UniProt Q9QY76 (whole entry, looked up): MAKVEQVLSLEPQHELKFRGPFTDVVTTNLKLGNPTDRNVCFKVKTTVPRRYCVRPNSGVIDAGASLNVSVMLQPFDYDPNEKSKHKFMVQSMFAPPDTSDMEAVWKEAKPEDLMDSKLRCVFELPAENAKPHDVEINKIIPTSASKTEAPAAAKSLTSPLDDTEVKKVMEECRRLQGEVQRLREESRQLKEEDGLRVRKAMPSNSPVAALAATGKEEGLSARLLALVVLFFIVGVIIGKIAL
Sequence of UniProt Q09312 (whole entry, looked up): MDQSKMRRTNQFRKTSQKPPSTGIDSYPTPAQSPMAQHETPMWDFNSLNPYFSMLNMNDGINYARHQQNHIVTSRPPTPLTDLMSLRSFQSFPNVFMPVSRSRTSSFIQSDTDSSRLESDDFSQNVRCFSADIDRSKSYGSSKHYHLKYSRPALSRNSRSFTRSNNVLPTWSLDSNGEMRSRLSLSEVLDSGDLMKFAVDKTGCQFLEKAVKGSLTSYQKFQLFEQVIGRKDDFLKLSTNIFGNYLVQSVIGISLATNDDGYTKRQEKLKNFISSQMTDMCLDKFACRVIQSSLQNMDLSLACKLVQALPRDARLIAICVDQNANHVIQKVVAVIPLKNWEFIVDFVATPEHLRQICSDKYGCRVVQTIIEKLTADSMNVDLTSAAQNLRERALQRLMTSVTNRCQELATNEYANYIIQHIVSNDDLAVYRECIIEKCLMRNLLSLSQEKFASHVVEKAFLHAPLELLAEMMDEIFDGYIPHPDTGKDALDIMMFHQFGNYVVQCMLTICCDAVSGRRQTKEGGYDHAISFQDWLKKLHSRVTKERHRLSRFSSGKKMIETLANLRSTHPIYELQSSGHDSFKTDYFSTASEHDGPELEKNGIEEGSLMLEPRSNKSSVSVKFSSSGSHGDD
Sequence of UniProt P13382 (whole entry, looked up): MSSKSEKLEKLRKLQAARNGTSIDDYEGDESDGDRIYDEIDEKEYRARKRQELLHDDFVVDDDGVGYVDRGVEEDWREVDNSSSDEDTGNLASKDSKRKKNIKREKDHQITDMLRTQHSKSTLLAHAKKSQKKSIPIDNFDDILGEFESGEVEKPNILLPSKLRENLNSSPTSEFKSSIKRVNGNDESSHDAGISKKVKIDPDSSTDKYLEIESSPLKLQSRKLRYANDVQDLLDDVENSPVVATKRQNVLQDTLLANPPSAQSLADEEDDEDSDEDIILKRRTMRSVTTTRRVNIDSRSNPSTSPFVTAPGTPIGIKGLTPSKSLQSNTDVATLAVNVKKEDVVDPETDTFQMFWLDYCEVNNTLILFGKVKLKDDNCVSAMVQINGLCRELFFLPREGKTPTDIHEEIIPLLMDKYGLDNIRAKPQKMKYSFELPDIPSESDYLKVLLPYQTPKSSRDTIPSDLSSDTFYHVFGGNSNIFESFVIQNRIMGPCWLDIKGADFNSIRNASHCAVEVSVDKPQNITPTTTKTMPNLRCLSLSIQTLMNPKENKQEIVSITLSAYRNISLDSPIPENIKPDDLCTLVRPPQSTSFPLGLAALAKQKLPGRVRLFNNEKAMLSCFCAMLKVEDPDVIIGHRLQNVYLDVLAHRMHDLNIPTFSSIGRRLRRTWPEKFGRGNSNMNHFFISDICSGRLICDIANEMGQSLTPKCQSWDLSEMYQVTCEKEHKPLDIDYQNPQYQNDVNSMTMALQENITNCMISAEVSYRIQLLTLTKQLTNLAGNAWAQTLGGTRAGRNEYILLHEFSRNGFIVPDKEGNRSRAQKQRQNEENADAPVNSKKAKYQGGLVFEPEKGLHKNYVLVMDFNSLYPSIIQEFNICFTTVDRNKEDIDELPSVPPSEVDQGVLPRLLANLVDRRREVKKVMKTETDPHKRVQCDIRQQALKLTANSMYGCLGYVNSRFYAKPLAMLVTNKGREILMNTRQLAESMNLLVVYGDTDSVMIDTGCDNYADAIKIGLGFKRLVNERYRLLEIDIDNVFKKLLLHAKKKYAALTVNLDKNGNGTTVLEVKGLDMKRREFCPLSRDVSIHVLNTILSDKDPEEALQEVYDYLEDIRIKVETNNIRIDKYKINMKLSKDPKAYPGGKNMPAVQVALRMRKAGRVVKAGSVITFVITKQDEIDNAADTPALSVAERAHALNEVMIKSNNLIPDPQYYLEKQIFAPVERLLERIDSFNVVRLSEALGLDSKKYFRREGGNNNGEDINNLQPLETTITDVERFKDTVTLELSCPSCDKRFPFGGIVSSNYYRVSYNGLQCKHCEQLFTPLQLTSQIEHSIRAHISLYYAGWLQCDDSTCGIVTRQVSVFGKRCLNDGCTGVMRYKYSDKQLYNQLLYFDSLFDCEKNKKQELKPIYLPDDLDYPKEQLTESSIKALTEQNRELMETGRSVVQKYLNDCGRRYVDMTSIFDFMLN
Sequence of UniProt O75365 (whole entry, unmodified, looked up): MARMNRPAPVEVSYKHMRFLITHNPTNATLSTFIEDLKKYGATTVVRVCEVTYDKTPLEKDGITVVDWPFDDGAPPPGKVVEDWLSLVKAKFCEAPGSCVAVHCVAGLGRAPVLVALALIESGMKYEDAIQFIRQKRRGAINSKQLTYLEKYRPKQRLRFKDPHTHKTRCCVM
Sequence of UniProt Q9Y244 (whole entry, looked up): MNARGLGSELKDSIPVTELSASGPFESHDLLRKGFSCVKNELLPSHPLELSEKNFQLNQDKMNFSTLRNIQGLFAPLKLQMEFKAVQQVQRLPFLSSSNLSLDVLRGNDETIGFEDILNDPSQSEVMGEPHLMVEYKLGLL

Substance | tested on | assay | test system | setting | scale | quantity | value
GSGAGKETYY | human MAGI1-3/6 PDZ construct (MBP fusion) | automated holdup | peptide, crude extract | concentration not given, corrected by standard peak, unit not given | relative to: biotin control resin, higher = stronger binding | binding intensity | 0.00901
B1 | MDM4 170-260 W200S/W201G (Homo sapiens, UniProt O15151) | NMR titration |  |  |  | binding | binds
LANFLVHSSNNFGAIL (hIAPP residues 12-27 (Homo sapiens); O-GlcNAc serine) | IAPP mature, Alexa Fluor 647 label (Homo sapiens, UniProt P10997) | MST | peptide | 25 °C |  | binding | binds
HLCS (Homo sapiens, UniProt P50747) | Histone H3.2 (Homo sapiens, UniProt Q71DI3) | limited proteolysis |  |  |  | binding | binds
B2 (SEH1) | NUP145 C-terminal subunit (Saccharomyces cerevisiae, UniProt P49687) | cross-linking |  |  |  | binding | binds
B3 (Arc) | tau 2N4R, dephosphorylated (Homo sapiens, UniProt P10636-8) | pull-down |  |  |  | binding | binds
SEEEFFDAHE (Pitpnm1 residues 346-355 (Mus musculus)) | Vapb 1-125 (Mus musculus, UniProt Q9QY76) | X-ray crystallography | peptide |  |  | binding | binds
B4 (nlpI) | protein N130K/N225K/Q284R (Escherichia coli, UniProt P37648) | pull-down |  |  |  | binding | binds
GSGAGSETKM | human MAGI1-2/6 PDZ construct (MBP fusion) | automated holdup | peptide, crude extract | concentration not given, corrected by standard peak, unit not given | relative to: biotin control resin, higher = stronger binding | binding intensity | -0.0591
B5 (ranibizumab Fab) | VEGFC (Homo sapiens, UniProt P49767) | SPR | Fab |  |  | binding | no binding
B6 (MLLT3) | AFF1 (Homo sapiens, UniProt P51825) | complex purification reconstitution |  |  |  | binding | binds
B7 (KAT7 364-473) | HDAC2 (Homo sapiens, UniProt Q92769) | pull-down |  |  |  | binding | binds
epoetin alfa | UT7/EPO | RT-qPCR, measured: AREG |  | concentration not given, 90 min | relative to: vehicle | mRNA fold induction | 2.6 fold
RVB1 (Saccharomyces cerevisiae, UniProt Q03940) | VPS72 (Saccharomyces cerevisiae, UniProt Q03388) | cryo-EM |  |  |  | binding | binds
FAEKFKEAVKDYFAKFWDPAAEKLKEAVKDYFAKLWD (reversed nanodisc peptide NSPr) | SOAT1 66-550 (Homo sapiens, UniProt P35610) | reconstitution pull-down | peptide | together with: detergent-free |  | binding | binds
B8 (SNAPC3) | POLR3E (Homo sapiens, UniProt Q9NVU0) | cryo-EM |  |  |  | binding | binds
B9 (gld-3 860-949) | fbf-2 164-575 (Caenorhabditis elegans, UniProt Q09312) | pull-down |  |  |  | binding | binds
PPITYTGRFSLEPAPNSGNTL (EGR1 129-149 (Homo sapiens)) | MIDN Catch domain (Homo sapiens) | X-ray crystallography | peptide |  |  | binding | binds
B10 (CCDC32 66-130) | AP-2 α/σ2 (Mus musculus) | pull-down |  |  |  | binding | binds
B11 (lpxC 1-305) | lapB 21-389 A376P (Escherichia coli, UniProt P0AB58) | pull-down |  |  |  | binding | binds
moe1 (Schizosaccharomyces pombe, UniProt O94236) | cdc48 (Schizosaccharomyces pombe, UniProt Q9P3A7) | far-Western overlay |  |  |  | binding | binds
PRI2 (Saccharomyces cerevisiae, UniProt P20457) | POL1 (Saccharomyces cerevisiae, UniProt P13382) | mass photometry |  |  |  | binding | binds
B12 (SNU71 382-537) | PRP40 351-552 (Saccharomyces cerevisiae, UniProt P33203) | pull-down |  |  |  | binding | binds
B13 (CNNM4 352-511) | PTP4A3 1-169 (Homo sapiens, UniProt O75365) | pull-down |  |  |  | binding | binds
KLVVVGAGDV | HLA class I histocompatibility antigen, A alpha chain, allele A*02:01 (Homo sapiens, UniProt P04439) | MHC class I stabilisation, flow cytometry | peptide, TAP2-knockout TISI monoallelic cells | 25 µM, 18 h, 37 °C, together with: β2-microglobulin 3 µg/mL | relative to: DMSO | HLA class I surface increase | 9.6%
B14 (PSMG4 1-123) | POMP (Homo sapiens, UniProt Q9Y244) | cryo-EM |  |  |  | binding | binds
